Measurements from different studies.
Every numbered part comes from another study and shows a few of its results, in no order. “And” joins repeats or separate records; there may be more than shown.
Sequence of UniProt P42681 (whole entry, looked up): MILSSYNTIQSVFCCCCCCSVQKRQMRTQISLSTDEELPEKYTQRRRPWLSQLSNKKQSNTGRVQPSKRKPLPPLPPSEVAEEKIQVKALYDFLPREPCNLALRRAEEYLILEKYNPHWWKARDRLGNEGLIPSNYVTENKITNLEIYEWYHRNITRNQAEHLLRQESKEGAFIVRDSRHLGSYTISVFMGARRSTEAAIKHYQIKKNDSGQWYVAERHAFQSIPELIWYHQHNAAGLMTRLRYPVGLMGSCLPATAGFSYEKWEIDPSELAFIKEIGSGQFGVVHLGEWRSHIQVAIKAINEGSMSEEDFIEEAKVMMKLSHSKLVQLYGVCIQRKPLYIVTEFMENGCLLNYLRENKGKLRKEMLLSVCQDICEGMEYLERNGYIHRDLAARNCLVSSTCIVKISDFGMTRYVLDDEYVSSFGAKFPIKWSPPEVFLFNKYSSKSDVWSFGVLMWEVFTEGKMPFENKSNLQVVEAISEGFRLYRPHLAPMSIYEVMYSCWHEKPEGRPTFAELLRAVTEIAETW
Sequence of UniProt P21728 (whole entry, looked up): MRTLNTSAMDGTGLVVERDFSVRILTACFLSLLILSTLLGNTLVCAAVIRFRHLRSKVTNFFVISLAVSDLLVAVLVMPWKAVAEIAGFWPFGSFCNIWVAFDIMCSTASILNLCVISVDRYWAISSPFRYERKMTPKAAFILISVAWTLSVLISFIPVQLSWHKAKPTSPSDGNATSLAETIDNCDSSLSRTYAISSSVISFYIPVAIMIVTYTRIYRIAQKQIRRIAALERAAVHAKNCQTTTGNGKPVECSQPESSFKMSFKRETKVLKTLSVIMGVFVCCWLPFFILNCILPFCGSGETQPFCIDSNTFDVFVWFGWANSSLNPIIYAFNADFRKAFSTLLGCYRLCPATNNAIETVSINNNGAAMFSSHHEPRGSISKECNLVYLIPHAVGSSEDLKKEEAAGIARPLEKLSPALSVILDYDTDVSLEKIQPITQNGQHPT
Sequence of UniProt P08172 (whole entry, looked up): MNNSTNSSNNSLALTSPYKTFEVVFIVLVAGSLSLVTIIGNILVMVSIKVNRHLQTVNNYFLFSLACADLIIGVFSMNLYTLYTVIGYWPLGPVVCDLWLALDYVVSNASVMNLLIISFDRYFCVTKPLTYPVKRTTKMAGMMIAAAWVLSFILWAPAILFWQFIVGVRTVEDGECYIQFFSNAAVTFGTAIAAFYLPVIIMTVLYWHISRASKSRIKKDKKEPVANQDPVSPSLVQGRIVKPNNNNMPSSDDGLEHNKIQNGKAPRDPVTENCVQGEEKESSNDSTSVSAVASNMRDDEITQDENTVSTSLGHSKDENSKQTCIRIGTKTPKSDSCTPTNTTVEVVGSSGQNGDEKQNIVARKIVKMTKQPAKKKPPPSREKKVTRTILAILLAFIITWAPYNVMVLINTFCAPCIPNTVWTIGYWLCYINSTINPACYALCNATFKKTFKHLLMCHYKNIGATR
Sequence of UniProt P18089 (whole entry, looked up): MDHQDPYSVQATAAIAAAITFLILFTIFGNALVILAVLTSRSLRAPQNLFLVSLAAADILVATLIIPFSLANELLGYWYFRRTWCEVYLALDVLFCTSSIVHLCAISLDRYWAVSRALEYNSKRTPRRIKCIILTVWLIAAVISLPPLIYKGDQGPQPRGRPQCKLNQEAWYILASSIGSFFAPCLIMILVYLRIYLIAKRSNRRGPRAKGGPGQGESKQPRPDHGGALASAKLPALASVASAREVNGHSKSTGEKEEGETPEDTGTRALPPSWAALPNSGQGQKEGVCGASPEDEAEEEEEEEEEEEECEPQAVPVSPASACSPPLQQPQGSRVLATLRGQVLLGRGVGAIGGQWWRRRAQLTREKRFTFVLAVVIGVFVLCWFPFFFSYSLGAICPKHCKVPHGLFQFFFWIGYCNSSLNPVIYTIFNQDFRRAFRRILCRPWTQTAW
Sequence of UniProt P25100 (whole entry, looked up): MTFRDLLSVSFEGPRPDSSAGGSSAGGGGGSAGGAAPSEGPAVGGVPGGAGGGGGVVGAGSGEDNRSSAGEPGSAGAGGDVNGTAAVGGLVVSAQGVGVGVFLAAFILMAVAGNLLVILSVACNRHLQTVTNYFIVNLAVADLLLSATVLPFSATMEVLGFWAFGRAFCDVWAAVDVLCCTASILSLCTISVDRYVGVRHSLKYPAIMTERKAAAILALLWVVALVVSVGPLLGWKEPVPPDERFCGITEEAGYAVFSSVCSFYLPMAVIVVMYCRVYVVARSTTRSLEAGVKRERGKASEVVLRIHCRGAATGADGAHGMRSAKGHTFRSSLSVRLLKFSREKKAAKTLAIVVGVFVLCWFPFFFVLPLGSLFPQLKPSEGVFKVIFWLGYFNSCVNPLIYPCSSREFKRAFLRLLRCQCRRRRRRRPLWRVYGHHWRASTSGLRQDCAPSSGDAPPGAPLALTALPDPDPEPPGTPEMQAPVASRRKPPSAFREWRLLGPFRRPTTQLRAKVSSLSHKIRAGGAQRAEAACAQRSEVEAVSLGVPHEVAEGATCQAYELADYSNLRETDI
Sequence of UniProt P41595 (whole entry, looked up): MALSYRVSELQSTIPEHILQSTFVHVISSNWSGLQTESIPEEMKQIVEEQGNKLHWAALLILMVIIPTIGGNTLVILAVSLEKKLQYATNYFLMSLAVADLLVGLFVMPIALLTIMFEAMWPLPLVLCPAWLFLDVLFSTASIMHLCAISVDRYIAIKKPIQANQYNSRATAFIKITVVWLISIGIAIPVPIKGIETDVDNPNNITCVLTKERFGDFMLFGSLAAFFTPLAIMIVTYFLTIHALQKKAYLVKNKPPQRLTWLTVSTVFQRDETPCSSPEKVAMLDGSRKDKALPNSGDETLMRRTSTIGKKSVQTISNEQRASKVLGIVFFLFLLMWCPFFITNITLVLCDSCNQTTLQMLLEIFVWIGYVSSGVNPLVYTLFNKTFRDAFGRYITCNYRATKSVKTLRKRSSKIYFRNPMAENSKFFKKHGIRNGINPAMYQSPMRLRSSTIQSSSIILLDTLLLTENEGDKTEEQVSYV
Sequence of UniProt P08588 (whole entry, looked up): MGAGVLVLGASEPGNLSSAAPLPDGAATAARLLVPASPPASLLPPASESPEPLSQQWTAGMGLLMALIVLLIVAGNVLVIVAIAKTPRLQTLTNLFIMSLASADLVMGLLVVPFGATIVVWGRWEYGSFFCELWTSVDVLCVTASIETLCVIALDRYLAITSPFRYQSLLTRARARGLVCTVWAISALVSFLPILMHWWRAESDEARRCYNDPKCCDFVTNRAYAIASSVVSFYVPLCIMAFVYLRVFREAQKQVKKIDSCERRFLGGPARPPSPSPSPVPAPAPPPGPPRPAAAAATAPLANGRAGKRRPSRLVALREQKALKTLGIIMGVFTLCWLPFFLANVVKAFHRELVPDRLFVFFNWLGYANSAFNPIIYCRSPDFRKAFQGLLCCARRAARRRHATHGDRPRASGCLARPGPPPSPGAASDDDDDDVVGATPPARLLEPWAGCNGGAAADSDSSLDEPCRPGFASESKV
Sequence of UniProt P08912 (whole entry, looked up): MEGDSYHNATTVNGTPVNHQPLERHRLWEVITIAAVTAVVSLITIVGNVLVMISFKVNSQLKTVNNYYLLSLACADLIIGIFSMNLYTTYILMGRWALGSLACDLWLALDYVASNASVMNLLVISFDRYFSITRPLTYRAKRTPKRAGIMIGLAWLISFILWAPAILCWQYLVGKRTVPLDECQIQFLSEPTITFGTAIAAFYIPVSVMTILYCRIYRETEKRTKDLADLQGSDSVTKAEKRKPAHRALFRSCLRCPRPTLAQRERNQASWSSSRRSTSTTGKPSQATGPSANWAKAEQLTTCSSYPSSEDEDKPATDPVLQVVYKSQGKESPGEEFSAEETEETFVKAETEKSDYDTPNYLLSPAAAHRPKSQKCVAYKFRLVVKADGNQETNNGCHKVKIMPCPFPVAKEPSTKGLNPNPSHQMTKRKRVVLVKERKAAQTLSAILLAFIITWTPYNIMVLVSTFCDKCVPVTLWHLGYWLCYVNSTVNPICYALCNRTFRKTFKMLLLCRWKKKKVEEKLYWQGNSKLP
Sequence of UniProt P25021 (whole entry, looked up): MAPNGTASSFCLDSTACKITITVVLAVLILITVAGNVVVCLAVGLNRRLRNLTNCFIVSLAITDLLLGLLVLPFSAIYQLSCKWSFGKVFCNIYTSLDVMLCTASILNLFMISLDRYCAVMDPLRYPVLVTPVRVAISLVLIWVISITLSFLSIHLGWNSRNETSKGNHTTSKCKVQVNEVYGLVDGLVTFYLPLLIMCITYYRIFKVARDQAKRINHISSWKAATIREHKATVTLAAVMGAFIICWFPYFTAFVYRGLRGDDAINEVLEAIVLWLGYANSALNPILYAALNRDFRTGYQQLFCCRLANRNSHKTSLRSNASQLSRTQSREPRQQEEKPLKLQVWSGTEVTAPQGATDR
Sequence of UniProt P18825 (whole entry, looked up): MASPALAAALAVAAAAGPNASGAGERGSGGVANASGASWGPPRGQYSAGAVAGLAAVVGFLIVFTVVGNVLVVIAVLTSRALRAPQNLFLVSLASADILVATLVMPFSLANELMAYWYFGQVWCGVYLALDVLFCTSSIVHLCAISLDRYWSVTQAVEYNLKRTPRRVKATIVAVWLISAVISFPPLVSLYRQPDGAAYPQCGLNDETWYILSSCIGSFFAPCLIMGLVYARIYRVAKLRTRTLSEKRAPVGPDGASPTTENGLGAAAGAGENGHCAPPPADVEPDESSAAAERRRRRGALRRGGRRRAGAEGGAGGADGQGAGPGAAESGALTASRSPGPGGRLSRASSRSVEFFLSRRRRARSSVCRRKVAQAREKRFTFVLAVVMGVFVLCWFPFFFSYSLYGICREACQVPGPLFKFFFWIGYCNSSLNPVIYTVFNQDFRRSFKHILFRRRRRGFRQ
Sequence of UniProt Q5BJF2 (whole entry, looked up): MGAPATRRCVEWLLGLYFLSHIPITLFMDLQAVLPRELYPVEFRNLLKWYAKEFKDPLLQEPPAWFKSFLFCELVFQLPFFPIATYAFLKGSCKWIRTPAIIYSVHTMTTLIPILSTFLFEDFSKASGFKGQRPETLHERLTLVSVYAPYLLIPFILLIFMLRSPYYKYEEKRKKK

Set 1
SMILES: COc1ccc2[nH]c3c4[nH]c5ccc(OC)cc5c4c4c(c3c2c1)C(=O)NC4=O
Concentration: 1 µM
For GRK3 (Homo sapiens, UniProt P35626); competitive binding panel; reference: vehicle: remaining binding read 70%.
EGFR (Homo sapiens, UniProt P00533, del746-750); competitive binding panel; reference: vehicle — remaining binding: 20%.
The remaining binding was 12% (PHKG1 (Homo sapiens, UniProt Q16816); competitive binding panel; reference: vehicle).
It gave 87% for remaining binding (PRKACA (Homo sapiens, UniProt P17612); competitive binding; PKAC-alpha).
PRKD2 (Homo sapiens, UniProt Q9BZL6); competitive binding panel; reference: vehicle — remaining binding: 62%.
The remaining binding was 100% (MARK4 (Homo sapiens, UniProt Q96L34); competitive binding panel; reference: vehicle).
For TIE1 (Homo sapiens, UniProt P35590); competitive binding panel; reference: vehicle: remaining binding read 100%.
TXK (Homo sapiens, UniProt P42681); competitive binding panel; reference: vehicle — remaining binding: 100%.
It gave 9.9% for remaining binding (SIK2 (Homo sapiens, UniProt Q9H0K1); competitive binding panel; reference: vehicle).

Set 2
Cell line: mouse MPNST tumor cells
Technique: high-content nuclear imaging
Item: cell number
Concentration: 10 µM
Time: 12 h
Setting: mean of 2 replicates
Reference: plate mean
Direction: higher = more cells
For `COC(=O)Nc1nc2cc(C(=O)c3ccc(F)cc3)ccc2[nH]1`, the nuclei count was -4.25 z-score.
The nuclei count of `Cc1ccc(Cl)c(Nc2ccccc2C(=O)O)c1Cl` is reported as 2.67 z-score and 2.38 z-score.
For `CCN(CC)C(=S)SSC(=S)N(CC)CC`, the nuclei count was -5.3 z-score.
`Cc1nnn(-c2ccc(-c3ccc(C4(C(=O)O)CC4)cc3)cc2)c1NC(=O)O[C@H](C)c1ccccc1` gave a nuclei count of 0.661 z-score.
The nuclei count of `CN(C)CC(c1ccc(O)cc1)C1(O)CCCCC1` (stereo not shown) is reported as -0.0191 z-score.
`O=C(Nc1cccc(C(F)(F)F)c1)Nc1ccc(Br)cc1-c1nn[nH]n1` has a nuclei count of -0.274 z-score.
For `COC(=O)[C@H]1[C@H]2C[C@@H]3c4[nH]c5cc(OC)ccc5c4CCN3C[C@H]2C[C@@H](OC(=O)c2cc(OC)c(OC)c(OC)c2)[C@@H]1OC`, the nuclei count was 1.28 z-score.
`CC(=O)[C@H]1CC[C@H]2[C@@H]3CC=C4C[C@@H](O)CC[C@]4(C)[C@H]3CC[C@]12C` has a nuclei count of 2.73 z-score.
`C[C@H](Nc1cc2c(-c3ccc4c(c3)OCO4)noc2cn1)c1ccccc1` gave a nuclei count of 0.473 z-score.
`CC(Cc1cccc(C(F)(F)F)c1)NCCOC(=O)c1ccccc1` (stereo not shown) has a nuclei count of -0.497 z-score.
For `O=[N+]([O-])c1ccc2nc(COCc3nc4ccc([N+](=O)[O-])cc4[nH]3)[nH]c2c1`, the nuclei count was 3.6 z-score.
With `Cc1c(C(N)=O)nn(-c2ccc(Cl)cc2Cl)c1-c1ccc(Cl)cc1` the nuclei count was 2.37 z-score.
`O=[N+]([O-])c1cnc(CO)n1CCO` gave a nuclei count of 3.07 z-score.

Set 3
Structure (SMILES): CC(=O)N[C@@H](Cc1c[nH]c2ccccc12)C(=O)N[C@@H](CCC(=O)C=[N+]=[N-])C(=O)OC(C)C
Dose: dose not given
Reference: vehicle
The “log2 fold change” was 0.13 (metabolomics, item: inosine 5'-monophosphate; mouse, EL4 tumour).
The “log2 fold change” was -0.188 (item: N-acetylphenylalanine; mouse, EL4 tumour-bearing, EL4 tumour).
For item: thiamin; mouse, EL4 tumour, tumour: “log2 fold change” read 0.0094.
item: 3-amino-2-piperidone; mouse, EL4 tumour-bearing, EL4 tumour — “log2 fold change”: 0.00166.
The “log2 fold change” was -0.706 (item: fumarate; mouse, EL4 tumour-bearing, EL4 tumour).
It gave 0.661 for “log2 fold change” (item: glucose 6-phosphate; mouse, EL4 tumour-bearing, EL4 tumour).
The “log2 fold change” was 0.198 (item: taurine; mouse, EL4 tumour-bearing, EL4 tumour).
item: N-acetyl-aspartyl-glutamate; Mus musculus, EL4 tumour — “log2 fold change”: -0.146.
The “log2 fold change” was 0.339 (item: mannitol/sorbitol; mouse, EL4 tumour-bearing, EL4 tumour).
For item: mannonate*; mouse, EL4 tumour-bearing, EL4 tumour: “log2 fold change” read 0.128.
item: prolylglycine; mouse, EL4 tumour-bearing, EL4 tumour — “log2 fold change”: 0.658.

Set 4
SMILES: CN1C(=O)[C@@H](N2CCc3c(nn(Cc4ccccc4)c3Br)C2=O)COc2ccccc21
Effect on: cell-free assay
Concentration: 10 µM
For CHRM5 (Homo sapiens, UniProt P08912): inhibition read 9.18%.
It gave 53.9% for inhibition (TMEM97 (Homo sapiens, UniProt Q5BJF2)).
For ADRA1A (Homo sapiens, UniProt P35348): inhibition read -4.83%.
The inhibition was -4.12% (CHRM2 (Homo sapiens, UniProt P08172)).
It gave 5.52% for inhibition (ADRA1D (Homo sapiens, UniProt P25100)).
For ADRA2A (Homo sapiens, UniProt P08913): inhibition read 68%.
HTR7 (Homo sapiens, UniProt P34969) — inhibition: 5.69%.
DRD3 (Homo sapiens, UniProt P35462) — inhibition: 3.31%.
For HRH4 (Homo sapiens, UniProt Q9H3N8): inhibition read 14.7%.
For CHRM4 (Homo sapiens, UniProt P08173): inhibition read 11.7%.
The inhibition was 38.3% (HTR2B (Homo sapiens, UniProt P41595)).
It gave 11.2% for inhibition (ADRB2 (Homo sapiens, UniProt P07550)).
For HRH1 (Homo sapiens, UniProt P35367): inhibition read 9.99%.
For HRH2 (Homo sapiens, UniProt P25021): inhibition read 0.52%.
For ADRA2B (Homo sapiens, UniProt P18089): inhibition read 59.6%.
It gave 16.1% for inhibition (DRD1 (Homo sapiens, UniProt P21728)).
It gave 39.3% for inhibition (ADRB3 (Homo sapiens, UniProt P13945)).
The inhibition was 71.3% (ADRA2C (Homo sapiens, UniProt P18825)).
The inhibition was -5.95% (DRD2 (Homo sapiens, UniProt P14416)).
ADRB1 (Homo sapiens, UniProt P08588) — inhibition: 12%.
For ADRA1B (Homo sapiens, UniProt P35368): inhibition read -0.19%.
For HTR6 (Homo sapiens, UniProt P50406): inhibition read 8.15%.

Repeated from above (set 3):
The “log2 fold change” was 0.13 (metabolomics, item: inosine 5'-monophosphate; mouse, EL4 tumour).
For item: thiamin; mouse, EL4 tumour, tumour: “log2 fold change” read 0.0094.
The “log2 fold change” was -0.188 (item: N-acetylphenylalanine; mouse, EL4 tumour-bearing, EL4 tumour).
